Assay results pooled from the literature.
Each line is one published result; not all experiments were run side by side.

| SMILES | test | system | conditions | Cmax [ng/mL] |
| --- | --- | --- | --- | --- |
| N.N.O=C([O-])C1(C(=O)[O-])CCC1.[Pt+2] | refers to: unbound platinum | human, plasma ultrafiltrate | intravenous, AUC 3, median, dose level -2 | 17100 |
| C[C@H](NC(=O)c1c(C(F)F)nn(C)c1Oc1cccc(C(F)(F)F)c1)c1ccc(C(=O)O)cc1 | – | human, plasma | 250 mg, cycle 1 day 8, mean | 604 |
| OCc1ncc2n1-c1ccc(Cl)cc1C(c1ccccc1F)=NC2 | – | human, plasma | oral, 7.5 mg of midazolam, day 26, arithmetic mean, no amenamevir | 16.6 |
| CC(=O)c1c(C)c2cnc(Nc3ccc(C4CCN(CCS(C)(=O)=O)CC4)cn3)nc2n(C2CCCC2)c1=O | – | human, plasma | oral, 25 mg once daily, day 1, single dose | 75.5 |
| Cn1ncc(-c2nc(N[C@H]3CC[C@H](N)CC3)ncc2Cl)c1CC1CC1 | HPLC-MS/MS | human patients | oral, 3 mg, day 5 | 20.5 |
| N.N.O=C([O-])C1(C(=O)[O-])CCC1.[Pt+2] | ICP-MS platinum, refers to: platinum | human patients, plasma ultrafiltrate | dose not given, carboplatin target AUC 3, cycle 1 day 1 | 30000 |
| O=c1ccc2ncc(=O)n3c2n1C[C@H]3CN1CCC(NCc2cc3c(cn2)OCCC3)CC1 | – | healthy human volunteers, plasma | oral, dose not given, arithmetic mean, with: rifampicin | 3060 |
| O[C@H]1CCCN[C@@H]1CCCn1cnc2c(Cl)c(Cl)ccc21 | – | human, UGT2B7 NN phenotype, plasma | oral, 150 mg twice daily, steady state | 293 |

Some of these lines once more:
| SMILES | test | system | conditions | Cmax [ng/mL] |
| --- | --- | --- | --- | --- |
| CC(=O)c1c(C)c2cnc(Nc3ccc(C4CCN(CCS(C)(=O)=O)CC4)cn3)nc2n(C2CCCC2)c1=O | – | human, plasma | oral, 25 mg once daily, day 1, single dose | 75.5 |
